Results collected from several papers.
Numbered parts are unrelated; each lists some results of a single study. Several values in a cell are separate wells, animals, samples, runs or records.
Chain of UniProt P9WI81 (whole entry, looked up): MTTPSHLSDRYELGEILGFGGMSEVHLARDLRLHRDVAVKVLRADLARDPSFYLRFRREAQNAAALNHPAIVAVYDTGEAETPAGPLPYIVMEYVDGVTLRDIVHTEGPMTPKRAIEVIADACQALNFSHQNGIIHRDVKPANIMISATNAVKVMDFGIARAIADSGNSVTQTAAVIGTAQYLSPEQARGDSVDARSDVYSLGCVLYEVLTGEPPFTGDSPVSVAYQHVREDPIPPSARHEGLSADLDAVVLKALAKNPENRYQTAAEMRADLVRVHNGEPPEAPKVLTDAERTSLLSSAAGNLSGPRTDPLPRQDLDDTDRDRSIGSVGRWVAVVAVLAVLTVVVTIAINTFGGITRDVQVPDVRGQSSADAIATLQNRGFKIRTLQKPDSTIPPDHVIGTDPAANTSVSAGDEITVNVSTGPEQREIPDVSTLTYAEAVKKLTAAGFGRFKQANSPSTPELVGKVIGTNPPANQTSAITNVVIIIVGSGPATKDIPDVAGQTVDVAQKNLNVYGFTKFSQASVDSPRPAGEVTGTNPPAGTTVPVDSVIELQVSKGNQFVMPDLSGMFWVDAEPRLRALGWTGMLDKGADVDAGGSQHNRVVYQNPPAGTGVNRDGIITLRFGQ

Study 1
SMILES: Cn1cc(-c2cccc(CN3CCC4(CC3)COc3c4ccc4c3CN([C@H]3CCC(=O)NC3=O)C4=O)c2)cn1
Mode: degrader
Ikzf2/Crbn I391V: Ikzf2/Crbn (Mus musculus, UniProt P81183+Q8C7D2, I391V)
Chain of UniProt P81183 (whole entry, unmodified, looked up): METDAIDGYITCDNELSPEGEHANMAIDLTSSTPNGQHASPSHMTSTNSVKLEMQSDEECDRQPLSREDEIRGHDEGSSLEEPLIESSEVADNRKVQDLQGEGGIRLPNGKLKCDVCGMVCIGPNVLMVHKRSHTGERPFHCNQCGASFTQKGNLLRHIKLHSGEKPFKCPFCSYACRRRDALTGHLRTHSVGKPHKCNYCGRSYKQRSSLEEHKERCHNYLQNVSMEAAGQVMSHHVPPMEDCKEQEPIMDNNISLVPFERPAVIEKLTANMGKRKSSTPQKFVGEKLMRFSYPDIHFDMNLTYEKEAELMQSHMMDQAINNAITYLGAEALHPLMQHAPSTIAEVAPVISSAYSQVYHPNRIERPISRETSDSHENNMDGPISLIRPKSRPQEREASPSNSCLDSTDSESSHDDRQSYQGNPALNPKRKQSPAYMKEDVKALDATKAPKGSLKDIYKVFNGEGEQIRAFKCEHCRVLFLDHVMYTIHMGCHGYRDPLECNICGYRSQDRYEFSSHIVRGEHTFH
Chain of UniProt Q8C7D2 (whole entry, unmodified, looked up): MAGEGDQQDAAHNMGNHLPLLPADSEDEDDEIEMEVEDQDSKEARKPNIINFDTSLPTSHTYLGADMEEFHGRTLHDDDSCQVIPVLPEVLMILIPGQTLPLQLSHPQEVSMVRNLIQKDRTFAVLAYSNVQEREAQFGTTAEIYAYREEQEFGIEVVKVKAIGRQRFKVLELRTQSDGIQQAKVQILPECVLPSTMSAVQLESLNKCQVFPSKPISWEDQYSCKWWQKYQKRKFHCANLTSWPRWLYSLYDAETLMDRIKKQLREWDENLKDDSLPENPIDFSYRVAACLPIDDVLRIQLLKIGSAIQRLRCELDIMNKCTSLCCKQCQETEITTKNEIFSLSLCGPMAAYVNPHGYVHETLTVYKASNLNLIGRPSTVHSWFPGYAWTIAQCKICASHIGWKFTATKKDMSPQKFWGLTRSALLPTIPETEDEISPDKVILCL
CRBN/Zinc finger protein Helios: CRBN/Zinc finger protein Helios (Homo sapiens, UniProt Q96SW2+Q9UKS7)
Chain of UniProt Q96SW2 (whole entry, looked up): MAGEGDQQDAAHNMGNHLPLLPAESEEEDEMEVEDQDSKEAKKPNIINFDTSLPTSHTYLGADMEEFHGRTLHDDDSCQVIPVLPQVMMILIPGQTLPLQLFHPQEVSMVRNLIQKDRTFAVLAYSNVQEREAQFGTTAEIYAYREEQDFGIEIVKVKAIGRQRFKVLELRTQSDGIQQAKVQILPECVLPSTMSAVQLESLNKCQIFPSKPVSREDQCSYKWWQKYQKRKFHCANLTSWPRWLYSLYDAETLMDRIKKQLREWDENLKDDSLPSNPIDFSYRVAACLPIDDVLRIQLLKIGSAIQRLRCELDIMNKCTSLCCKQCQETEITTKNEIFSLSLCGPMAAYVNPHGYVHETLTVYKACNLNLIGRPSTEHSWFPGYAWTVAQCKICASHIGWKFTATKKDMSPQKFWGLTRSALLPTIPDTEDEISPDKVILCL
Chain of UniProt Q9UKS7 (whole entry, looked up): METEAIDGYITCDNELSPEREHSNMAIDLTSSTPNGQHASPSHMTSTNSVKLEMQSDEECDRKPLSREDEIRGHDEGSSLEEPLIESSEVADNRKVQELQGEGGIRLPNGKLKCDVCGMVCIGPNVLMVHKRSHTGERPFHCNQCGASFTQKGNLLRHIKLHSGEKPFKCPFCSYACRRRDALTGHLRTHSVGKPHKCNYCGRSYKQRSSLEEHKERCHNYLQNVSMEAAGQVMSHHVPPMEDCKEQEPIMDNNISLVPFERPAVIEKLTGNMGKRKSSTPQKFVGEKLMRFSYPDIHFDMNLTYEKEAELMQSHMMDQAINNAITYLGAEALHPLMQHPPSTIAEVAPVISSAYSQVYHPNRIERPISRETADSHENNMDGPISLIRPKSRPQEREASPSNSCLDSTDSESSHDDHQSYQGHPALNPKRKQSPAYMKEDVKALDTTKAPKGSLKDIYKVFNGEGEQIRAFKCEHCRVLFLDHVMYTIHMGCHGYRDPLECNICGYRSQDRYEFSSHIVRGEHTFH
target | assay | test system | conditions | protein remaining
Ikzf2/Crbn I391V | – | Crbn I391V mouse, thymus | 30 mg/kg, 24 h | 54% and 6% and 52% and 55%
CRBN/Zinc finger protein Helios | HiBiT | HEK293 | 111.1 nM | 8.8% and 10.5%
CRBN/Zinc finger protein Helios | HiBiT | HEK293 | 111.1 nM, 3 h | 14.7% and 17.3%
CRBN/Zinc finger protein Helios | HiBiT | HEK293 | 0.1524 nM, 3 h | 76.6% and 80.1%
Ikzf2/Crbn I391V | – | Crbn I391V mouse, thymus | 10 mg/kg, 6 h | 55% and 28% and 38% and 31%
CRBN/Zinc finger protein Helios | HiBiT | HEK293 | 12.35 nM, 1 h | 54.6% and 56.2%
CRBN/Zinc finger protein Helios | HiBiT | HEK293 | 1.372 nM, 6 h | 34.2% and 35.8%
CRBN/Zinc finger protein Helios | HiBiT | HEK293 | 0.1524 nM, 0.5 h | 89.8% and 103%
CRBN/Zinc finger protein Helios | HiBiT | HEK293 | 1.372 nM | 45.2% and 48.7%
CRBN/Zinc finger protein Helios | HiBiT | HEK293 | 1000 nM | 8.18% and 9.83%

Study 2
SMILES: CC(C)C[C@@H]1NC(=O)[C@@H](N(C)C(=O)[C@@H](NC(=O)[C@@H]2C[C@@H](F)CN2C(=O)C2(C(F)(F)F)CC(F)(F)C2)C2CC2)CCCCCCCN(C)C(=O)[C@H](Cc2cc(Cl)cnc2OC2CC2)N(C)C1=O
Route: oral
test system | conditions | tumour volume
mouse, sample A SCLC PDX | 100 mg/kg three times daily, day 21 | 185 mm3 and 220 mm3 and 192 mm3 and 291 mm3 and 328 mm3
NSG mice, sample B SCLC PDX | 100 mg/kg twice daily, day 15 | 234 mm3 and 309 mm3 and 206 mm3 and 310 mm3 and 300 mm3
NSG mice, sample B SCLC PDX | 100 mg/kg twice daily, day 19 | 312 mm3 and 206 mm3 and 203 mm3 and 224 mm3 and 265 mm3
NSG mice, sample B SCLC PDX | 100 mg/kg twice daily, day 8 | 286 mm3 and 215 mm3 and 185 mm3 and 205 mm3 and 181 mm3
mouse, sample A SCLC PDX | 100 mg/kg three times daily, day 25 | 468 mm3 and 297 mm3 and 243 mm3 and 346 mm3 and 221 mm3
NSG mice, sample B SCLC PDX | 100 mg/kg twice daily, day 29 | 254 mm3 and 289 mm3 and 264 mm3 and 232 mm3 and 240 mm3
NSG mice, sample B SCLC PDX | 100 mg/kg twice daily, day 1 | 229 mm3 and 158 mm3 and 272 mm3 and 202 mm3

Mixed results
Compound | tested on | assay | test system | conditions | quantity | result
COc1cc(Nc2c3c(nc4ccccc24)CCC3)cc(OC)c1OC | Leishmania donovani | parasite growth | THP-1 | intracellular, amastigote | IC50 | 8.41 µM
C#CCN1C(=O)C(O)(C(=O)O)Oc2cc(F)ccc21 (centres unmarked) | Arabidopsis thaliana | – | Col-0 | 12.5 µg/mL, seed germination, repetition mean | hypocotyl length | 1.7 cm
c1ccc2c(NCCCN3CCOCC3)c3c(nc2c1)CCC3 | Leishmania donovani | – | DD8, promastigotes | 16.7 µM | inhibition | inactive
CC[C@@]1(c2ccccc2)C2=C(CC(C)(C)CC2=O)Nc2n[nH]cc21 | Serine/threonine-protein kinase PknB (pknB, Mycobacterium tuberculosis, UniProt P9WI81) | binding, competition with immobilised ligand | – | 1 µM | remaining binding | 100%
Clc1ccc2nc3c(c(Nc4ccc5c(c4)OCCO5)c2c1)CCC3 | Leishmania donovani | parasite growth | THP-1 | intracellular, amastigote | IC50 | 9.47 µM
CC(=O)c1cccc(Nc2c3c(nc4ccccc24)CCC3)c1 | Leishmania donovani | parasite growth | THP-1 | intracellular, amastigote | IC50 | 8.54 µM
